Published values pooled from the literature.
± gives the spread as reported.
CYP2C8: Cytochrome P450 2C8 (CYP2C8, Homo sapiens, UniProt P10632)
Chain of UniProt P10632 (whole entry, looked up): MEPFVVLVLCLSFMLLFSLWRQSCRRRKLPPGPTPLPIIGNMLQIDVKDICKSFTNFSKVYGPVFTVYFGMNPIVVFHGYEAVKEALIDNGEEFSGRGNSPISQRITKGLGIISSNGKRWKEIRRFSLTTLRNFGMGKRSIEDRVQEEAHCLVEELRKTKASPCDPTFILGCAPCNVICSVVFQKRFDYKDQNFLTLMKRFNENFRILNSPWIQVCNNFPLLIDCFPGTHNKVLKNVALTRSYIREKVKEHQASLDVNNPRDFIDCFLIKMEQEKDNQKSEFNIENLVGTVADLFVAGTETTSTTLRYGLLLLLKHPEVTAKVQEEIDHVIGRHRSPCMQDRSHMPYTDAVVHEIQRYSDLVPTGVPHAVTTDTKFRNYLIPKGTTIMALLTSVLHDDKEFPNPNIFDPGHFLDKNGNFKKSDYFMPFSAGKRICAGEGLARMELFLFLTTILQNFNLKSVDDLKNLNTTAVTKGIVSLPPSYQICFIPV
UCHL1: Ubiquitin carboxyl-terminal hydrolase isozyme L1 (UCHL1, Homo sapiens, UniProt P09936)
Chain of UniProt P09936 (whole entry, looked up): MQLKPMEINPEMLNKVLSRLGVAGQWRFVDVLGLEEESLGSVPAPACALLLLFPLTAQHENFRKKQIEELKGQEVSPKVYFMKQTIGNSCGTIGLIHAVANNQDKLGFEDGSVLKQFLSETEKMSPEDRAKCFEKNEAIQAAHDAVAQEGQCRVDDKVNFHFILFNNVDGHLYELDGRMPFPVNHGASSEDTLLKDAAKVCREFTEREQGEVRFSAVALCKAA

Structure (SMILES) | target | test | system | conditions | measurement | result
Cc1cc(Nc2ncnc3ccc(NC4=NC(C)(C)CO4)cc23)ccc1Oc1ccn2ncnc2c1 | CYP2C8 | substrate | human, plasma | oral, 300 mg single dose, day 1 | geometric mean Cmax | 410 ng/mL
Nc1ccc(S(=O)(=O)Nc2ccnn2-c2ccccc2)cc1 | CYP2C8 |  | pooled human liver microsomes | 5 min | IC50 | 2940 nM
N#C[C@H](C[C@@H]1CCCNC1=O)NC(=O)[C@H](CC1CC1)NC(=O)c1cc2cccc(Cl)c2[nH]1 | CYP2C8 | NADPH metabolic stability |  | 2 µM, pH 7.4 | half-life | 0.79 min
Cc1cc(C)c(CNC(=O)c2cc(Cl)c3c(c2C)O[C@@](C)([C@H]2CC[C@H](N(C)C)CC2)O3)c(=O)[nH]1 | CYP2C8 |  | recombinant human CYP2C8 | 0 and 30 min | CLint | 0.0529 µL/min/pmol
COc1nc(N)nc(Cl)n1 | UCHL1 | covalent, intact protein LC-MS |  | 12.5 µM | labelling | 27.6%
Cc1ccc2c(c1)C(=O)[C@]1(O)CCN(c3ccc4nc(C)ccc4c3)C1=N2.Cl | CYP2C8 | metabolic stability | recombinant CYP isoform |  | half-life | 32.6 min
CC(C)=CCc1c(O)cc(O)c2c1O[C@H](c1ccc(O)cc1)CC2=O | CYP2C8 |  |  | 10 µM, pH 7.4 | inhibition | 97.6 ± 0.1%
CCc1ccc(Cc2cnc(NC(=O)CCl)s2)cc1 | UCHL1 | covalent, intact protein LC-MS |  | 12.5 µM | labelling | 46.9%
COc1cc(O)c(CC=C(C)C)c(O)c1C(=O)/C=C/c1ccc(O)cc1 | CYP2C8 | enzyme activity, inhibitor | human liver microsomes | 10 µM, pH 7.4, added: amodiaquine | inhibition | 92.9 ± 0.4%
CCOc1cc(CC(=O)N[C@@H](CC(C)C)c2ccccc2N2CCCCC2)ccc1C(=O)O | CYP2C8 | substrate | human, plasma | 0.5 mg, day 1 | geometric mean AUC(0-last) | 10.5 ng·h/mL
CC(C)=CCc1c(O)cc2c(c1O)C(=O)C[C@@H](c1ccc(O)cc1)O2 | CYP2C8 |  |  | 1 µM, pH 7.4 | inhibition | < 10%
C=CC(=O)Nc1cc(Nc2nccc(-c3cn(C)c4ccccc34)n2)c(OCC(F)(F)F)nc1N(C)CCNC | CYP2C8 | substrate, recombinant enzyme |  |  | formation clearance | 1.58 µL/min/pmol

Repeated from above:
Structure (SMILES) | target | test | system | conditions | measurement | result
CCc1ccc(Cc2cnc(NC(=O)CCl)s2)cc1 | UCHL1 | covalent, intact protein LC-MS |  | 12.5 µM | labelling | 46.9%
COc1cc(O)c(CC=C(C)C)c(O)c1C(=O)/C=C/c1ccc(O)cc1 | CYP2C8 | enzyme activity, inhibitor | human liver microsomes | 10 µM, pH 7.4, added: amodiaquine | inhibition | 92.9 ± 0.4%
